Published values pooled from the literature.
Each line is one published result; not all experiments were run side by side. “And” joins repeats or separate records; there may be more than shown. ± gives the spread as reported.

SMILES | test | test system | conditions | how to read | measurement | result
[123I]c1cncc(OC[C@@H]2CCN2)c1 | SPECT | human, thalamus | intravenous bolus, 8.8 mCi | relative to: plasma | tissue/plasma ratio | 15
COc1ccc(-c2ccc3c(N4CCOC[C@@H]4C)nc(N4CCOC[C@@H]4C)nc3n2)cc1CO | – | human patients | oral, dose not given, related adverse events | – | incidence of ALT increase | 22%
CCCCCOc1ccc(-c2ccc(-c3ccc(C(=O)N[C@H]4C[C@@H](O)[C@@H](O)NC(=O)[C@@H]5[C@@H](O)[C@@H](C)CN5C(=O)[C@H]([C@@H](C)O)NC(=O)[C@H]([C@H](O)[C@@H](O)c5ccc(O)cc5)NC(=O)[C@@H]5C[C@@H](O)CN5C(=O)[C@H]([C@@H](C)O)NC4=O)cc3)cc2)cc1 | population PK model | patients aged sample B to < sample C years | intravenous, 200 mg loading, 100 mg once daily, mean, weight-corrected | – | Vss | 0.72 L/kg
CCCCCCCCCC[N+](C)(C)C | ultrafiltration | human serum | – | – | unbound fraction in blood | 0.122
CC(C)C[C@H](NC(=O)[C@H](Cc1cccc2ccccc12)NC(=O)[C@H](CNC(=O)c1ccc(F)nc1)NC(=O)[C@H](CO)NC(=O)C1CCNCC1)C(=O)N[C@H](CO)C(=O)N1CCC[C@H]1C(=O)N[C@H](C(N)=O)[C@@H](C)O | chemical stability | male human, serum | 1 mM, pH 7.4 | – | half-life | > 24 h
O=C(NCCS)c1cccc(C(=O)NCCS)c1 | – | male Sprague-Dawley rat, plasma | intravenous, 1 mg/kg, 6 h | – | concentration | 0.0337 µg/mL
O[C@H]1CCCN[C@@H]1CCCn1cnc2c(Cl)c(Cl)ccc21 | – | healthy human volunteers, plasma | oral, 100 mg twice daily, day 14, median | – | Tmax at steady state | 3 h
CC[C@H](C)[C@H](NC(=O)[C@H](CCCNC(=N)N)NC(=O)[C@H](CCCCN)NC(=O)[C@H](CC(C)C)NC(=O)[C@H](Cc1c[nH]c2ccccc12)NC(=O)[C@H](Cc1c[nH]c2ccccc12)NC(=O)[C@@H](N)Cc1c[nH]c2ccccc12)C(=O)N[C@@H](Cc1c[nH]c2ccccc12)C(=O)O | haemolysis | human erythrocytes | 1 h, 50% haemolysis | – | LC50 | 30 µM
CCc1cccc(C)c1N(C(=O)CCl)C(C)COC (stereo not drawn) | LC-MS/MS | herbicide solution | 2 h, 23 °C, with: 365 nm UV exposure | – | remaining amount | 68 ± 6.27%
CS(=O)(=O)CCCn1c(Cn2c(=O)n(CC(F)(F)F)c3ccncc32)cc2cc(Cl)ccc21 | – | RSV-infected infants | concentration not given, mid dose cohorts | – | patients with high aPTT | 0%
COc1cccc2c1cc1c3c(cc4c(c32)OCO4)C(=O)N1 | HPLC | rat (Sprague-Dawley, male), isolated perfused kidney, urine | aristolochic acid I dosed at 50 | – | time of first detection in urine | 10 min
NC(=O)c1nc(F)c[nH]c1=O | UV-Vis spectrophotometry | supercritical CO2 | 120 min, 338 K, 18 MPa, 651.18 kg/m^3 | – | solubility | 307 µg/mL
CC[C@H](NC(=O)OC(C)(C)C)C(=O)N[C@H](C(=O)N[C@@H](CC(C)C)C(=O)N[C@@H](CCC(N)=O)C(=O)Nc1ccc2c(C)cc(=O)oc2c1)C(C)(C)C | shake-flask HPLC | – | 1 h, pH 7.2, 37 °C, 5% DMSO, 0.01% Triton X-100 | – | solubility | 19.3 ± 2.6 µM
CCCCCOc1ccc(-c2cc(-c3ccc(C(=O)N[C@H]4C[C@@H](O)[C@@H](O)NC(=O)[C@@H]5[C@@H](O)[C@@H](C)CN5C(=O)[C@H]([C@H](O)CC(N)=O)NC(=O)[C@H]([C@H](O)[C@@H](O)c5ccc(O)c(OS(=O)(=O)O)c5)NC(=O)[C@@H]5C[C@@H](O)CN5C(=O)[C@H]([C@@H](C)O)NC4=O)cc3)no2)cc1 | – | human paediatric patients 2 to 5 years, plasma | intravenous, 4.5 mg/kg once daily, day 7, median | – | Tmax | 1.1 h
O=c1[nH]c(Cc2ccccn2)nc2c1cnn2C1CCOCC1 | – | healthy men, extensive metabolizers, plasma | oral, 25 mg single dose, tablet, geometric mean | – | AUC(0-inf) | 0.351 µM·h
Nc1nc(N)nc(N)n1 | LC-MS/MS | pregnant female rat, serum | oral, 1000 mg/kg/day, 10 days | – | serum concentration | 683 µg/mL and 611 µg/mL and 356 µg/mL and 117 µg/mL
CO[C@H]1C[C@@H]2CC[C@@H](C)[C@@](O)(O2)C(=O)C(=O)N2CCCC[C@H]2C(=O)O[C@H]([C@H](C)C[C@@H]2CC[C@@H](OCCO)[C@H](OC)C2)CC(=O)[C@H](C)/C=C(\C)[C@@H](O)[C@@H](OC)C(=O)[C@H](C)C[C@H](C)/C=C/C=C/C=C/1C | LC-MS/MS | human patients, whole blood | oral, 5 mg once daily (MTD), with: paclitaxel | – | Cmin | 0.00728 µg/mL
C[C@@H]1COCCN1c1cc([C@]2(O)C[C@H]3CC[C@@H](C2)O3)c2cnn(-c3cc[nH]n3)c2n1 | – | mouse, tumour-bearing | oral, 17 days, continuous daily dosing | – | MTD | 10 mg/kg
CC(=O)N[C@H](CCCCNC(=O)C(C)F)C(=O)N[C@@H](CS)C(=O)N[C@@H](CS)C(=O)N[C@@H](CCC(=O)O)C(=O)N[C@@H](Cc1c[nH]cn1)C(=O)N[C@H](Cc1ccccc1)C(=O)N[C@@H](CCCNC(=N)N)C(=O)N[C@@H](Cc1c[nH]c2ccccc12)C(=O)N[C@@H](CS)C(=O)N[C@@H](CCCNC(=N)N)C(=O)N1CCC[C@H]1C(=O)N[C@H](C(N)=O)C(C)C (stereo partly drawn) [fluorine-18 labelled] | – | nude mice, A375M xenograft, brain | intravenous, 2 h | – | tissue uptake | 0.05 ± 0.01 %ID/g
Clc1ccc(-c2c(Cl)ccc(Cl)c2Cl)c(Cl)c1 | enantioselective GC | pooled human liver microsomes 0.5 mg/mL | 5 µM, 2 h, 37 °C, with: NADPH 0.5 mM | – | enantiomeric fraction | 0.53
CCNc1nc(Cl)nc(NCC)n1 | LC-MS/MS | herbicide solution | 2 h, 4 °C, with: 254 nm UV exposure | – | remaining amount | 11.7 ± 1.61%
c1cc2ccc3cccc4ccc(c1)c2c34 | HPLC-fluorescence | Wistar rat, male, lung | oral, 4 mg/kg, 24 h | – | tissue concentration | 14.2 ± 0.2 ng/g
CN[C@@](C)(C[18F])C(=O)O | – | SCID mouse MDA-MB-468 xenograft, brain | 30 min, post injection | – | tissue uptake | 0.3 ± 0.04 %ID/g
COc1cc(C=CC(=O)C=Cc2cc(OC)c(OC)c(OC)c2)cc(OC)c1OC | fish embryo acute toxicity test | zebrafish (Danio rerio) embryos wild-type | immersion, up to 96 h, 0.1% DMSO | – | LC50 | < 200 µM
CC1(C)S[C@@H]2[C@H](NC(=O)[C@@H](C(=O)O)c3ccsc3)C(=O)N2[C@H]1C(=O)O | – | rat plasma | 2400 ng/mL, 24 h, room temperature, short-term stability | relative to: nominal concentration | relative error | 2.4%
CC[C@H](C)[C@H](NC(=O)[C@H](CCC(=O)O)NC(=O)[C@@H](NC(=O)[C@H](CC(=O)O)NC(=O)[C@H](CC(C)C)NC(=O)[C@H](C)NC(=O)[C@H](CCSC)NC(=O)[C@H](CCCCN)NC(=O)[C@@H](NC(=O)[C@H](CC(N)=O)NC(=O)[C@H](CC(C)C)NC(=O)[C@H](CC(C)C)NC(=O)[C@H](CC(=O)O)NC(=O)[C@H](CCC(N)=O)NC(=O)[C@H](Cc1ccc(O)cc1)NC(=O)[C@H](CCC(=O)O)NC(=O)[C@H](CCCNC(=N)N)NC(=O)[C@H](CCC(=O)O)NC(=O)[C@H](CC(C)C)NC(=O)[C@H](CCCNC(=N)N)NC(=O)[C@H](C)NC(=O)[C@H](CC(C)C)NC(=O)[C@H](CCC(=O)O)NC(=O)[C@@H](N)CCC(=O)O)C(C)C)[C@@H](C)CC)C(=O)N[C@@H](C)C(=O)N[C@H](C(=O)N[C@@H](Cc1ccc(O)cc1)C(=O)N[C@@H](CCCNC(=N)N)C(=O)N[C@@H](CCCCN)C(=O)N[C@@H](CC(C)C)C(=O)N[C@@H](CC(C)C)C(=O)N[C@@H](CCC(=O)O)C(=O)N[C@@H](C)C(=O)N[C@@H](CC(C)C)C(=O)N[C@@H](CCC(=O)O)C(=O)N[C@@H](CO)C(=O)N[C@@H](CCCNC(=N)N)C(=O)O)[C@@H](C)O | circular dichroism | Tris buffer | pH 8.0, 20 °C | – | helical content | ~50%
N#Cc1ccc(N2N=C3c4ccc(C(=O)N5CCC(O)CC5)nc4CC[C@@H]3[C@@H]2C2CCCC2)cc1Cl | – | human, plasma | oral, 0.5 mg, single dose | – | CL/F | 0.725 L/h
COc1ccc(C[C@@H]2NC(=O)[C@H]([C@@H](C)O)NC(=O)[C@@H]3[C@@H]4CCN3C(=O)[C@@H]3Cc5cn(c6ccc(F)cc56)CCCCCCN(Cc5ccc(cc5)CCNC(=O)[C@]5(C)CCCN5C2=O)C(=O)CCC(=O)N[C@@H](C)C(=O)N[C@H](CNC(=O)CCCCC[N+](C)(C)C)C(=O)N[C@@H](Cc2cccc(c2)CNC(=O)CO4)C(=O)N3)cc1 | – | fasted healthy humans, plasma | oral, 200 mg single dose, with 1800 mg Labrasol, geometric mean | – | AUC(0-inf) | 1.26 µM·h
Cc1cc(C(C#N)c2ccc(Cl)cc2)c(Cl)cc1NC(=O)c1cc(I)cc(I)c1O (stereo not drawn) | – | parasitized lambs, plasma | oral, 10 mg/kg, with: moxidectin 0.2 mg/kg oral | – | AUC(0-LOQ) | 28600 ± 4820 µg·h/mL
CC(=O)N[C@@H](Cc1c[nH]c2ccccc12)C(=O)N[C@H](C(=O)N[C@@H](Cc1ccccc1)C(=O)N[C@@H](CC(N)=O)C(=O)N1CCC[C@H]1C(=O)N[C@@H](C)C(=O)N[C@H](C(=O)NCC(=O)N[C@@H](CCCCN)C(=O)N[C@@H](Cc1ccccc1)C(=O)N[C@@H](CCCCN)C(=O)N[C@@H](Cc1c[nH]c2ccccc12)C(=O)N[C@H](C(=O)NCC(N)=O)[C@@H](C)O)[C@@H](C)O)[C@@H](C)O | circular dichroism | phosphate buffer | pH 6.5 | – | Tm | 30.3 ± 0.1 °C
